Assay results gathered from unrelated publications.
Each line is one published result; not all experiments were run side by side.
Organism: Acinetobacter baumannii

CCCCCCCCn1cc[n+](CCCCCCCCCCOc2cc(OCCCCCCCCCC[n+]3ccn(CCCCCCCC)c3)cc(OCCCCCCCCCC[n+]3ccn(CCCCCCCC)c3)c2)c1.[Br-].[Br-].[Br-]
MIC (ATCC 17978): 16 µM

CCCCCCCC(=O)N[C@@H](CCN)C(=O)N[C@H](C(=O)N[C@@H](CCN)C(=O)N[C@H]1CCNC(=O)[C@H]([C@@H](C)O)NC(=O)[C@H](CCN)NC(=O)[C@H](C)NC(=O)[C@H](CC(C)C)NC(=O)[C@@H](Cc2ccccc2)NC(=O)[C@H](CCN)NC1=O)[C@@H](C)O
MIC (broth microdilution; ATCC 19606; 20 h, 37 °C): 16 µg/mL

CC[C@H](C)[C@H](NC(=O)[C@@H](CCCNC(=N)N)NC(=O)[C@H](CCCNC(=N)N)NC(=O)[C@@H]1CCCN1C(=O)[C@@H]1CCCN1C(=O)[C@H](CCCNC(=N)N)NC(=O)[C@@H]1CCCN1C(=O)[C@H](CCCNC(=N)N)NC(=O)[C@@H]1CCCN1C(=O)[C@H](CC(C)C)NC(=O)[C@H](Cc1ccc(O)cc1)NC(=O)[C@@H]1CCCN1C(=O)[C@@H]1CCCN1C(=O)[C@H](CCCNC(=N)N)NC(=O)[C@H](CC(=O)O)NC(=O)[C@@H](N)C(C)C)C(=O)N[C@@H](Cc1ccc(O)cc1)C(=O)N[C@@H](CC(N)=O)C(=O)N[C@H](CCCNC(=N)N)C(N)=O
MIC (broth microdilution; DSM 30008; 18 h, 37 °C, 25% MHB2): 32 µg/mL

CC[C@H]1OC(=O)[C@H](C)[C@@H](OC(=O)Cc2c(F)cccc2F)[C@H](C)[C@@H](O[C@@H]2O[C@H](C)C[C@H](N(C)C)[C@H]2O)[C@](C)(OC)C[C@@H](C)C(=O)[C@H](C)[C@@H](O)[C@]1(C)O
MIC (microbial growth; ATCC19606 DSM30007): 64 µg/mL

CC1(C)[C@H](NC(=O)/C(=N\OCC(=O)N2CCC(C(=O)O)CC2)c2csc(N)n2)C(=O)N1OS(=O)(=O)O
MIC (agar dilution; ATCC 19606): > 64 µg/mL

CCCCCCCC(=O)N[C@@H](CCN)C(=O)N[C@H](C(=O)N[C@@H](CCCN)C(=O)N[C@H]1CCNC(=O)[C@H]([C@@H](C)O)NC(=O)[C@H](CCN)NC(=O)[C@H](CCN)NC(=O)[C@H]([C@@H](C)O)NC(=O)[C@@H](CC(C)C)NC(=O)[C@H](CCN)NC1=O)[C@@H](C)O
MIC (ATCC 17978, CAMHB; 20 h, 37 °C): 2 µg/mL

CC(C)(O/N=C(\C(=O)N[C@@H]1C(=O)N(OS(=O)(=O)O)C1(C)C)c1nsc(N)n1)C(=O)O
MIC (agar dilution; ATCC 19606): 32 µg/mL

CCCCCCCC(=O)N[C@@H](CCN)C(=O)N[C@H](C(=O)N[C@@H](CN)C(=O)N[C@H]1CCNC(=O)[C@H]([C@@H](C)O)NC(=O)[C@H](CCN)NC(=O)[C@H](CCCN)NC(=O)[C@H]([C@@H](C)O)NC(=O)[C@@H](CC(C)C)NC(=O)[C@H](CCN)NC1=O)[C@@H](C)O
MIC (ATCC 19606, CAMHB; 20 h, 37 °C): 0.5 µg/mL

CCOc1c(NC(=O)c2ccc(NC(=O)[C@H](Cc3c[nH]nn3)NC(=O)c3ccc(NC(=O)/C(C)=C/c4ccc(O)cc4)cc3)cc2)ccc(C(=O)Nc2ccc(C(=O)O)c(O)c2OC)c1O
MIC (broth microdilution; ciprofloxacin-resistant): 0.5 µg/mL

CCCCCCCC(=O)N[C@@H](CCN)C(=O)N[C@H](C(=O)N[C@@H](CCN)C(=O)N[C@H]1CCNC(=O)[C@H]([C@@H](C)O)NC(=O)[C@H](CCN)NC(=O)[C@H](CCN)NC(=O)[C@H]([C@@H](C)O)NC(=O)[C@@H](CC(C)C)NC(=O)[C@H](CCN)NC1=O)[C@@H](C)O
MIC (ATCC 19606, CAMHB; 20 h, 37 °C): 4 µg/mL

CCCCCCCCCCCC[N+](C)(C)CCCCCCCCCCOc1cc(OCCCCCCCCCC[N+](C)(C)CCCCCCCCCCCC)cc(OCCCCCCCCCC[N+](C)(C)CCCCCCCCCCCC)c1.[Br-].[Br-].[Br-]
MIC (ATCC 17978): 250 µM

CCCCCCCC(=O)N[C@@H](CCN)C(=O)N[C@H](C(=O)N[C@@H](CN)C(=O)N[C@H]1CCNC(=O)[C@H]([C@@H](C)O)NC(=O)[C@H](CCCN)NC(=O)[C@H](CCN)NC(=O)[C@H]([C@@H](C)O)NC(=O)[C@@H](CC(C)C)NC(=O)[C@H](CCN)NC1=O)[C@@H](C)O
MIC (ATCC 17978, CAMHB; 20 h, 37 °C): 8 µg/mL

CN[C@H](CC(C)C)C(=O)N[C@H]1C(=O)N[C@@H](CC(N)=O)C(=O)N[C@H]2C(=O)N[C@H]3C(=O)N[C@H](C(=O)N[C@H](C(=O)N[C@@H](CCCNC(=N)N)C(N)=O)c4cc(O)cc(O)c4-c4cc3ccc4O)[C@H](O)c3ccc(c(Cl)c3)Oc3cc2cc(c3O[C@@H]2O[C@H](CO)[C@@H](O)[C@H](O)[C@H]2O[C@H]2C[C@](C)(NCc3ccc(OCc4cn(CC(=O)N[C@H](C(=O)N[C@@H](CCN)C(=O)N[C@H]5CCNC(=O)[C@H]([C@@H](C)O)NC(=O)[C@H](CCN)NC(=O)[C@H](CCN)NC(=O)[C@H](CC(C)C)NC(=O)[C@@H](CC(C)C)NC(=O)[C@H](CCN)NC5=O)[C@@H](C)O)nn4)c(OC)c3)[C@H](O)[C@H](C)O2)Oc2ccc(cc2Cl)[C@H]1O
MIC (broth microdilution; BAA-747, cation-adjusted Mueller-Hinton broth; 18 to 20 h, 37 °C, 0.002% polysorbate 80): 32 µg/mL

CC1(C)C(NC(=O)C(=NOC2(C(=O)O)CC2)c2csc(N)n2)C(=O)N1OS(=O)(=O)O (stereo not drawn)
MIC (agar dilution; ATCC 19606): 16 µg/mL

CC[C@H]1OC(=O)[C@H](C)[C@@H](OC(=O)Cc2cccc(Cl)c2)[C@H](C)[C@@H](O[C@@H]2O[C@H](C)C[C@H](N(C)C)[C@H]2O)[C@](C)(OC)C[C@@H](C)C(=O)[C@H](C)[C@@H](O)[C@]1(C)O
MIC (microbial growth; ATCC19606): > 32 µg/mL

CCCCCCCC(=O)N[C@@H](C)C(=O)N[C@H](C(=O)N[C@@H](CCN)C(=O)N[C@H]1CCNC(=O)[C@H]([C@@H](C)O)NC(=O)[C@H](CCN)NC(=O)[C@H](CCN)NC(=O)[C@H](CC(C)C)NC(=O)[C@@H](Cc2ccccc2)NC(=O)[C@H](CCN)NC1=O)[C@@H](C)O
MIC (CLSI broth microdilution; 248-01-C.248, CAMHB; 20 h, 37 °C): 256 µg/mL

CCOc1c(NC(=O)c2ccc(NC(=O)c3ccc(NC(=O)[C@H](Cc4c[nH]nn4)NC(=O)c4ccc(NC(=O)/C(C)=C/c5ccc(O)cc5)cc4)cc3)c(OC)c2O)ccc(C(=O)O)c1O
MIC (broth microdilution; ciprofloxacin-resistant): 0.5 µg/mL

CC[C@H]1OC(=O)[C@H](C)[C@@H](OC(=O)c2ccc(N)cc2)[C@H](C)[C@@H](O[C@@H]2O[C@H](C)C[C@H](N(C)C)[C@H]2O)[C@](C)(OC)C[C@@H](C)C(=O)[C@H](C)[C@@H](O)[C@]1(C)O
MIC (microbial growth; ATCC19606): > 32 µg/mL

CCCCCCCCCCn1cc[n+](CCCCCCOc2cc(OCCCCCC[n+]3ccn(CCCCCCCCCC)c3)cc(OCCCCCC[n+]3ccn(CCCCCCCCCC)c3)c2)c1.[Br-].[Br-].[Br-]
MIC (ATCC 17978): 2 µM

CCCCCCCC(=O)N[C@@H](CCN)C(=O)N[C@H](C(=O)N[C@@H](CCN)C(=O)N[C@H]1CCNC(=O)[C@H]([C@@H](C)O)NC(=O)[C@H](C)NC(=O)[C@H](CCN)NC(=O)[C@H](CC(C)C)NC(=O)[C@@H](Cc2ccccc2)NC(=O)[C@H](CCN)NC1=O)[C@@H](C)O
MIC (broth microdilution; ATCC 17978; 20 h, 37 °C): 256 µg/mL

CN[C@H](CC(C)C)C(=O)N[C@H]1C(=O)N[C@@H](CC(N)=O)C(=O)N[C@H]2C(=O)N[C@H]3C(=O)N[C@H](C(=O)N[C@H](C(=O)O)c4cc(O)cc(O)c4-c4cc3ccc4O)[C@H](O)c3ccc(c(Cl)c3)Oc3cc2cc(c3O[C@@H]2O[C@H](CO)[C@@H](O)[C@H](O)[C@H]2O[C@H]2C[C@](C)(NCc3ccc(OCc4cn(CC(=O)N[C@H](C(=O)N[C@@H](CCN)C(=O)N[C@H]5CCNC(=O)[C@H]([C@@H](C)O)NC(=O)[C@H](CCN)NC(=O)[C@H](CCN)NC(=O)[C@H](CC(C)C)NC(=O)[C@@H](CC(C)C)NC(=O)[C@H](CCN)NC5=O)[C@@H](C)O)nn4)c(OC)c3)[C@H](O)[C@H](C)O2)Oc2ccc(cc2Cl)[C@H]1O
MIC (broth microdilution; ATCC 17978, cation-adjusted Mueller-Hinton broth; 18 to 20 h, 37 °C, 0.002% polysorbate 80): 32 µg/mL

CCCCCCC#Cc1cncc(-c2nnc(SCc3ccc(Cl)cc3)n2C)c1
MIC (microbial growth, broth dilution; ATCC17978): > 64 µg/mL

COc1ccc2ccc(O)c(/C=N/[C@H]3CCCC[C@H]3/N=C/c3cccc(F)c3O)c2c1
MIC (bacterial growth, broth microdilution; carbapenem-resistant clinical isolate): > 40 µM

CC1(C)[C@H](NC(=O)/C(=N\OCC(=O)N2CCC(C(=O)O)C2)c2nsc(N)n2)C(=O)N1OS(=O)(=O)O (stereo partly drawn)
MIC (agar dilution; 16-16): > 64 µg/mL

Some of these lines once more:
CC1(C)[C@H](NC(=O)/C(=N\OCC(=O)N2CCC(C(=O)O)C2)c2nsc(N)n2)C(=O)N1OS(=O)(=O)O (stereo partly drawn)
MIC (agar dilution; 16-16): > 64 µg/mL

CC1(C)[C@H](NC(=O)/C(=N\OCC(=O)N2CCC(C(=O)O)CC2)c2csc(N)n2)C(=O)N1OS(=O)(=O)O
MIC (agar dilution; ATCC 19606): > 64 µg/mL

CCCCCCCC(=O)N[C@@H](CCN)C(=O)N[C@H](C(=O)N[C@@H](CCN)C(=O)N[C@H]1CCNC(=O)[C@H]([C@@H](C)O)NC(=O)[C@H](C)NC(=O)[C@H](CCN)NC(=O)[C@H](CC(C)C)NC(=O)[C@@H](Cc2ccccc2)NC(=O)[C@H](CCN)NC1=O)[C@@H](C)O
MIC (broth microdilution; ATCC 17978; 20 h, 37 °C): 256 µg/mL

CCCCCCCCCCn1cc[n+](CCCCCCOc2cc(OCCCCCC[n+]3ccn(CCCCCCCCCC)c3)cc(OCCCCCC[n+]3ccn(CCCCCCCCCC)c3)c2)c1.[Br-].[Br-].[Br-]
MIC (ATCC 17978): 2 µM
